# Published values collected from several papers.
# Every numbered part comes from another study and shows a few of its results, in no order.

# Series 1 — method: protein binding microarray; molecule type: double-stranded DNA, one strand shown; sample: in vitro; concentration: not given; relative to: not given; direction: higher = stronger binding
# Target: Histone acetyltransferase KAT6A, winged helix 1, GST fusion (KAT6A, Homo sapiens, UniProt Q92794, residues 1-85)
# Notes: 8-mer, flanks averaged, mean of 2 arrays, mostly near background
# Residues (chain): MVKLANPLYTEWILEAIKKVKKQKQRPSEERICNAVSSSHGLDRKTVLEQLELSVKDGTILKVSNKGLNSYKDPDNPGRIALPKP
Oligonucleotide,E-score
GACCGTCA,0.0817
AGTAAGGC,0.0672
AAATAACC,-0.186
AACGTCGA,-0.166
ACGTACCT,-0.238

# Series 2 — method: RNA Bind-n-Seq; molecule type: RNA; sample: in vitro; concentration: 20 nM; notes: 6-mer, flanks averaged, single round; together with: 150 mM KCl; relative to: input library; direction: higher = stronger binding
# Target: TAR DNA-binding protein 43, full length, His tag (TARDBP, Homo sapiens, UniProt Q13148, residues 1-414)
Oligonucleotide,6-mer enrichment (R)
UCCGCA,0.644
CGUUCC,0.601
GCCUAA,0.699
GACCGU,0.816

# Series 3 — method: protein-binding microarray; molecule type: double-stranded DNA, one strand shown; sample: in vitro; concentration: 2200 nM top; notes: 60-bp whole probe; together with: salmon DNA 0.4 mg/ml; relative to: random background probes; direction: higher = stronger binding; shared flanks, not repeated: GCCTAGCAC … GTCTTGATTCGCTTGACGCTGCTG
# Target: Interferon regulatory factor 7, full length, phosphomimetic (IRF7, Homo sapiens, UniProt Q92985, residues 1-503, S471D/S472D/S475D/S476D/S477D/S483D/S484D/S487D)
# Construct (chain): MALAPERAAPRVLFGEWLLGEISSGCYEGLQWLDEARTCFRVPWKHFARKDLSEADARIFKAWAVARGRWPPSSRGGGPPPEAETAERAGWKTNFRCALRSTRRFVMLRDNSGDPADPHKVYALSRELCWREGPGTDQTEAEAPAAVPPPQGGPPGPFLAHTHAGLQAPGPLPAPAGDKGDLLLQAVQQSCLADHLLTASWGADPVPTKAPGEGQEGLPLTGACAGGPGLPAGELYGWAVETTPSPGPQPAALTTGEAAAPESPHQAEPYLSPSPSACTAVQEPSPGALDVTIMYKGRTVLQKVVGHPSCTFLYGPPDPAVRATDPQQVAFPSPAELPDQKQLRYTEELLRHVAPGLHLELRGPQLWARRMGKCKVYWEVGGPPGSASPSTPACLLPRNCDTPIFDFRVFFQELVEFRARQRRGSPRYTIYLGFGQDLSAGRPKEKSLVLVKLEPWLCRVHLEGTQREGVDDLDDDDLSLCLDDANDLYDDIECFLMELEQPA
Oligonucleotide,fitted relative affinity [z-score]
TTAGGCTTCGGTCTCGGTTAGTGCTAG,0.388
TTAGAACTGGGGTTTAGATTAGTGCTA,-0.106
TTAGGTCTCCCTTTCCTTTAGTGCTAG,1.77
TCACCTTTGCTTTCCTGACTGTGCTAG,2.8
GACGGTTTCGGGTATCGCGACGTGCTA,5.6
TCCCCTCTCATTCCAATTCTGTGCTAG,2.06
GACGGACTGGGACAGGGGACGTGCTAG,-0.949

# Further values, each from its own experiment
Molecule,target,test,test system,conditions,scale,quantity,result
"PhoQ, residues 284 288 289 292 302 303 SLANKL","PhoP, residues 12 14 15 18 19 SPWRL (Escherichia coli, UniProt P23836)","Sort-seq, item: YFP reporter",E. coli,"PhoQ-PhoP variant library, together with: 10 µM Mg2+","relative to: high Mg2+ state, higher = stronger signaling",fold induction,2.1

# For quick reference, copied from above (series 1):
Oligonucleotide,E-score
AACGTCGA,-0.166
